Experimental data gathered from unrelated publications.
Compare with care: the assays were run in different laboratories.
Target: Dual specificity protein kinase CLK4 (CLK4, Homo sapiens, UniProt Q9HAZ1)

CNC1C[S+]2CC[S+]3CC[S+](C1)[Ru-4]321([N]=C=S)[n]2c3ccc(OC)cc3c3c4c(c5cc(F)c[n+]1c5c32)C(=O)NC4=O (stereo not drawn)  remaining binding (KinomeScan; 0.1 µM; reference: untreated): 50%
Cc1cccc(O[C@H]2CCC[C@@H](C(C)CNCc3ccncc3)C2)c1 (relative stereo)  inhibition (enzyme activity, inhibitor; 10 µM): 0%
COc1cc(Nc2nccc(-c3cnn4nc(OC)ccc34)n2)cc(C(F)(F)F)c1  remaining binding (binding, competition with immobilised ligand; 1 µM): 13%
Cc1ccc(-c2c(/C=C(\C#N)C(=O)NC(C)C)n(CCCO)c3ncnc(N)c23)cc1  remaining binding (cell-free assay, competition with immobilised ligand; 1 µM): 100%
CNC(=O)C1CCN(c2cc(C)c(F)cc2NC(=O)c2ccc(-c3cc(O)ccc3C)c(C)c2)CC1  remaining binding (binding, competition with immobilised ligand; 1 µM): 80%
NC(=O)[C@@H](O)C[C@H]1CCc2sc3ncnc(O[C@H]4CC[C@H](N5CCOCC5)CC4)c3c21  inhibition (enzyme activity, inhibitor; 10 µM): 84%
Cc1cnc2nc1Nc1cccc(c1)COC/C=C/COCc1cc(ccc1OCCN1CCOCC1)N2  remaining binding (binding; 0.1 µM): 97%
CCN1CCN(Cc2ccc(C(=O)Nc3ccc(C)c(NCc4cnc5[nH]ccc5c4OC)c3)cc2C(F)(F)F)CC1  remaining binding (binding, competition with immobilised ligand; 1 µM): 86%
Nc1ncc(-c2cc(-c3cnn(CC(F)(F)F)c3)ncc2F)nc1C(=O)NC1CNCC(F)C1 (stereo not drawn)  remaining activity (enzyme activity; 1 µM; reference: DMSO control): 64%
CCn1cc(C(=O)O)c(=O)c2c(N)c(F)c(NC3CCCCC3)cc21  inhibition (kinase activity; 0.1 µM, with: ATP at Km): 3.8%
C=CC(=O)Nc1cccc(-c2cnc3[nH]cc(C(=O)NC(C)(C)C)c3n2)c1  inhibition (kinase activity; 0.1 µM): 103%
C=CC(=O)N1Cc2nc(-c3cc(-c4cc(Cl)cnc4Cl)c(F)cc3F)n(-c3ccncn3)c2C1  inhibition (cell-free assay, inhibitor; 1 µM): 2.1%

A few entries again:
CNC1C[S+]2CC[S+]3CC[S+](C1)[Ru-4]321([N]=C=S)[n]2c3ccc(OC)cc3c3c4c(c5cc(F)c[n+]1c5c32)C(=O)NC4=O (stereo not drawn)  remaining binding (KinomeScan; 0.1 µM; reference: untreated): 50%
